{"data": "Assay results of several laboratories", "cell line": "SH-SY5Y", "note": "Compare with care: the assays were run in different laboratories. Numbers after ± are the reported error."}
{"Compound": "O=c1c(Nc2ccccc2)c(NC2CCN(Cc3ccccc3)CC2)c1=O", "test": "neuroprotection, MTT", "setting": "12.5 µM, 24 h pretreatment, together with: H2O2 650 µM for 4 h", "endpoint": "cell survival", "value": "62.6%"}
{"Compound": "O=C(c1ccc(Nc2c3c(nc4ccccc24)CCCC3)cc1)C1CC1", "test": "MTT", "setting": "50 µM, 1 h pretreatment, 10% FBS, together with: H2O2", "endpoint": "viability", "value": "59.8 ± 2.58%"}
{"Compound": "O=c1c(NCc2ccccc2)c(NC2CCN(Cc3ccccc3)CC2)c1=O", "test": "neuroprotection, MTT", "setting": "12.5 µM, 24 h pretreatment, together with: H2O2 650 µM for 4 h", "endpoint": "cell survival", "value": "57.4%"}
{"Compound": "O=C1C=C(OCCCCCCn2cc(CNc3ccc4nccnc4c3)nn2)C(=O)c2ccccc21", "test": "cell growth or viability, SRB", "setting": "48 h", "endpoint": "GI50", "value": "> 100 µM"}
{"Compound": "FC(F)(F)c1cccc(Nc2c3c(nc4ccccc24)CCCC3)c1", "test": "MTT", "setting": "50 µM, 1 h pretreatment, 10% FBS, together with: H2O2", "endpoint": "viability", "value": "45.2 ± 2.74%"}
{"Compound": "Cc1nc2ccc(NCc3cn(CCCCCCOC4=CC(=O)c5ccccc5C4=O)nn3)cc2nc1C", "test": "cell growth or viability, SRB", "setting": "48 h", "endpoint": "GI50", "value": "> 100 µM"}
{"Compound": "CCCn1nnc2c(NCc3ccc(C)s3)nc(N[C@H](CC)CO)nc21", "test": "MTS", "setting": "100 µM, 24 h", "endpoint": "cell survival reduction", "value": "~50%"}
{"Compound": "O=c1oc2c(CNCCc3cccc(F)c3)c(O)ccc2c2c1CCC2", "test": "MTT", "setting": "25 µM, together with: L-glutamate 100 µM", "endpoint": "neuroprotection", "value": "18.2 ± 0.086%"}
{"Compound": "Cc1cccnc1Nc1c2c(nc3ccccc13)CCC(C)C2 (centres unmarked)", "test": "MTT", "setting": "50 µM, 1 h pretreatment, 10% FBS, together with: H2O2", "endpoint": "viability", "value": "57 ± 2.66%"}
{"Compound": "COc1ccc([C@@H]2N=NC(NCCc3c[nH]c4ccc(C)cc34)=NC2=O)cc1", "test": "MTT", "setting": "25 µM, together with: L-glutamate 100 µM", "endpoint": "neuroprotection", "value": "26.3 ± 0.077%"}
{"Compound": "COc1ccc(Nc2c(NC3CCN(Cc4ccccc4)CC3)c(=O)c2=O)cc1", "test": "neuroprotection, MTT", "setting": "12.5 µM, 24 h pretreatment, together with: H2O2 650 µM for 4 h", "endpoint": "cell survival", "value": "60.6%"}
{"Compound": "Cc1ccc(Nc2c3c(nc4ccccc24)CCCC3)cc1", "test": "MTT", "setting": "50 µM, 1 h pretreatment, 10% FBS, together with: H2O2", "endpoint": "viability", "value": "25.8 ± 1.25%"}
{"Compound": "O=c1c(NCc2ccc(O)cc2)c(NC2CCN(Cc3ccccc3)CC2)c1=O", "test": "neuroprotection, MTT", "setting": "12.5 µM, 24 h pretreatment, together with: H2O2 650 µM for 4 h", "endpoint": "cell survival", "value": "59.6%"}
{"Compound": "Cc1nc2ccc(NCc3cn(CCCOC4=CC(=O)c5ccccc5C4=O)nn3)cc2nc1C", "test": "cell growth or viability, SRB", "setting": "48 h", "endpoint": "GI50", "value": "31.2 µM"}
{"Compound": "Cc1ccc(Nc2c(NC3CCN(Cc4ccccc4)CC3)c(=O)c2=O)cc1", "test": "neuroprotection, MTT", "setting": "12.5 µM, 24 h pretreatment, together with: H2O2 650 µM for 4 h", "endpoint": "cell survival", "value": "68.2%"}
{"Compound": "COc1ccc(Nc2c3c(nc4ccc(Cl)cc24)CCCC3)nc1", "test": "MTT", "setting": "50 µM, 1 h pretreatment, 10% FBS, together with: H2O2", "endpoint": "viability", "value": "46.8 ± 2.66%"}
{"Compound": "Cc1nc2ccc(NCc3cn(CCCCCCCCOC4=CC(=O)c5ccccc5C4=O)nn3)cc2nc1C", "test": "cell growth or viability, SRB", "setting": "48 h", "endpoint": "GI50", "value": "> 100 µM"}
{"note": "Excerpt of the above:"}
{"Compound": "O=c1c(NCc2ccccc2)c(NC2CCN(Cc3ccccc3)CC2)c1=O", "test": "neuroprotection, MTT", "setting": "12.5 µM, 24 h pretreatment, together with: H2O2 650 µM for 4 h", "endpoint": "cell survival", "value": "57.4%"}
